Published values of several laboratories.
Numbered parts are unrelated; each lists some results of a single study.

Series 1
Target: Sal-like protein 4, full length isoform B (SALL4, Homo sapiens, UniProt Q9UJQ4-2, residues 1-616)
Technique: universal PBM
Molecule type: double-stranded DNA, one strand shown
Sample: in vitro
Concentration: not given
Notes: 8-mer, flanks averaged, mean of replicates
Reading: higher = stronger binding
Residues (chain): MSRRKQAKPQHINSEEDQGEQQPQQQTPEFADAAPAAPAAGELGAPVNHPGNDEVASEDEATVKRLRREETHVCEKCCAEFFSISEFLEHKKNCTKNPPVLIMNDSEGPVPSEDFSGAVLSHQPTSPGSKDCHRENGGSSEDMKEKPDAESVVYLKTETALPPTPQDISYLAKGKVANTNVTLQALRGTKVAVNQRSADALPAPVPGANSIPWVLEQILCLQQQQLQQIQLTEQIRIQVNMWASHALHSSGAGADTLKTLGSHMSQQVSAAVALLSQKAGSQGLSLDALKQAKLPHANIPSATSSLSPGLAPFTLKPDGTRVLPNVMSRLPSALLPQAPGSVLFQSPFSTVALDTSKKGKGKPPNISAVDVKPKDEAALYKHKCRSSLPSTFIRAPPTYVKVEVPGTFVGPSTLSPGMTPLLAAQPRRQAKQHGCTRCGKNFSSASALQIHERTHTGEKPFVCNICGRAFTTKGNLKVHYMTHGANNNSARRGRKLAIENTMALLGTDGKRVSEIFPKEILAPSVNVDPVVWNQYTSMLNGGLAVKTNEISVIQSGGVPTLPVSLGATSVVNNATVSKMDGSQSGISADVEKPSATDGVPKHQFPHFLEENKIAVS
Strand	E-score
ACGCTAGG	-0.0737
TAGCACCA	0.0089
CTCTCAGC	-0.262
GATGCGAA	0.163
GAACATAA	0.243
AAGATGTC	0.0896
AGCATCCC	-0.132
TACGCGGA	0.0326

Series 2
Target: RNA binding protein fox-1 homolog 2, RRM domain, GST-SBP tag (RBFOX2, Homo sapiens, UniProt O43251-10, residues 100-194)
Technique: RNA Bind-n-Seq
Molecule type: RNA
Sample: in vitro
Concentration: 365 nM
Notes: natural RNA segment, single round, ends assumed
Reference: no-protein control
Reading: higher = stronger binding
Residues (chain): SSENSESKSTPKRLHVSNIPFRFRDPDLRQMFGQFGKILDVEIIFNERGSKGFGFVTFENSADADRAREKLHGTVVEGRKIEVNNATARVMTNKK
Strand	RBNS enrichment (R)
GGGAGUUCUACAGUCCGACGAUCUGGCCAUAUCCCAGAACACUACCUCAUCCACCUGGCAGAGGGAAUUUCUGCUUCAGCCACCAAGCAGUUGUCUGUGUCCCUCAUCCAGAGGGGGCCUUGGCCACCAACAGUGGAAUUCUCGGGUGCCAA	0.389
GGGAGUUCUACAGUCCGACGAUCGACAACAAAGUCCCUGUCCUCAUGGGGCUUAUAUUCUGAUCCAUUUCCUCAUCUAUGAAAUGAAGAUUGUAGUUUUUAUUUCAUAGAGUCAUGAAGAUUGAGUUAAUCUCUGGAAUUCUCGGGUGCCAA	0.226
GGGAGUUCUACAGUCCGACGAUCACAAGCACUUGCACACAUGUGGACUCCUAACCAUGCUAACCUCACUGGCUGGGAAGGUGGGGACCCCAUGGGCCAGCCCUUGCAGGAGGCCCUUUUGCAAGGCUUAGGGUUGGAAUUCUCGGGUGCCAA	1.23
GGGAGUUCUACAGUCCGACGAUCAAUACCUUCAGGUCUGCCAUGCCAUCAGCCAGCCUGGUUCCUUCUGAGGGCAACCUGGGUCUGGUGGUAUUUCUGGUGGUGCAGAUGAGGGGAGGGUGGGGCCCUCGCUGUGGAAUUCUCGGGUGCCAA	0.479
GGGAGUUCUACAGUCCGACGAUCAGUGCUGGGUUUAAAGGUAUGCACCACCACCACCACCUGGUUUUAUGUUAUUUUCUAAAAUUGUCAUUCCUUUGCAACAUAUGAGCAUUAAUAUCUUUUCUCUUUUAACAUGGAAUUCUCGGGUGCCAA	0.827
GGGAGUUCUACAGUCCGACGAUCUUACACUGUGGUACAUAUAAGCAACUUGACUAGUGACAAAUGUACAGUAGUUAGAUAUCACCUACAUAUACAUUUUUCCAUUUUAUGCUCUAUGAUCUGAAGAACAAAAAUGGAAUUCUCGGGUGCCAA	0.974
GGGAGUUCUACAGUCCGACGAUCAUGAAUUUUAUAUUCCGUGAAUGUAUAUUGUCUUGUAAUGUUGCAUAAUGUUCACUUUUUAUAGUGUGUCCUUUAUUCUAAACAGUAAAGUGGUUUUAUUUCUAUCACACUGGAAUUCUCGGGUGCCAA	0.994
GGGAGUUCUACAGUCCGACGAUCUCCUCCAGCACUUUCUUUCCGCCUGAGUCCAGCCCAAGGCCUUUUAUUUUGCGCUGUGUAACUGCUGCCAGCUUCUCUCUUGGCCCUGCUCCCAGAUGGCGGUCUCCUGGUGGAAUUCUCGGGUGCCAA	1

Series 3
Target: Histone acetyltransferase KAT6A, winged helix 2, GST fusion (KAT6A, Homo sapiens, UniProt Q92794, residues 85-181)
Technique: protein binding microarray
Molecule type: double-stranded DNA, one strand shown
Sample: in vitro
Concentration: not given
Notes: 8-mer, flanks averaged, mean of 2 arrays, mostly near background
Reference: not given
Reading: higher = stronger binding
Residues (chain): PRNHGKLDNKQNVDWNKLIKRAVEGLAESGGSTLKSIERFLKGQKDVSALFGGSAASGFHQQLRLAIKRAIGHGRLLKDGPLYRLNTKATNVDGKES
Strand	E-score
CATGTTGG	-0.161
CACATAAC	-0.0439
CGTTCGGC	0.0686
CACGTCTA	-0.136
GCCGCGGA	0.22
GAAGTTTA	0.0743
GGTAGTAC	-0.24
GCCTTACC	-0.168
CTACTCAC	-0.0921

Series 4
Substance: PhoQ, residues 284 288 289 292 302 303 SIHMAM
Technique: Sort-seq
Measured: YFP reporter
Sample: E. coli
Notes: PhoQ-PhoP variant library
Together with: 10 µM Mg2+
Reference: high Mg2+ state
Reading: higher = stronger signaling
target	fold induction
PhoP, residues 12 14 15 18 19 QYCSL (Escherichia coli, UniProt P23836)	13.9
PhoP, residues 12 14 15 18 19 STHWV (Escherichia coli, UniProt P23836)	0.794
PhoP, residues 12 14 15 18 19 SHWTV (Escherichia coli, UniProt P23836)	3.03

Excerpt of the above (series 1):
Strand	E-score
CTCTCAGC	-0.262
GATGCGAA	0.163
GAACATAA	0.243
